# Literature values as cited in several papers.
# Protocols differ between the studies behind these lines. ± marks the error that the study gave.
# Chain of UniProt Q96GD4 (whole entry, looked up): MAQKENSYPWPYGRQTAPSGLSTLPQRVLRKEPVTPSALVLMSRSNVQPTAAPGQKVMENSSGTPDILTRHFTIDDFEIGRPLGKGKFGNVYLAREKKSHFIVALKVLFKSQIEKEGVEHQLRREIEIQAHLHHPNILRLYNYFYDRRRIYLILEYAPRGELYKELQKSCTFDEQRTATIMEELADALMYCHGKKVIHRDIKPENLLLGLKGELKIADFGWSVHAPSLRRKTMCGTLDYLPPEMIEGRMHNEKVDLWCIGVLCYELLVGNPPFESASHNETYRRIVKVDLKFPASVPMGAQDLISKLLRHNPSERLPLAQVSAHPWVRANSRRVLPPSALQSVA
Compound,tested on,test,test system,conditions,how to read,quantity,result
CC(=O)Oc1ccccc1C(=O)Nc1ncc([N+](=O)[O-])s1,Cryptosporidium,,"human, older children",dose not given,,clinical effectiveness,> 50%
Cc1cc(/C=C/C#N)cc(C)c1Nc1ccnc(Nc2ccc(C#N)cc2)n1,HIV,,,protein-binding adjusted,,IC90,0.012 µg/mL
O=C(/C=C/c1ccc(O)c(O)c1)O[C@@H]1C[C@](O)(C(=O)O)C[C@@H](OC(=O)/C=C/c2ccc(O)c(O)c2)[C@H]1O,hepatitis B virus,"viral antigen level, item: HBsAg",,,,IC50,90 µM
CCc1c(Cl)c(O)c(Cl)c(O)c1C(=O)O[C@H]1[C@H](O)[C@H](OC)[C@H](OC/C2=C\C=C\C[C@H](O)/C(C)=C/[C@H](CC)[C@@H](O[C@@H]3OC(C)(C)[C@@H](OC(=O)C(C)C)[C@H](O)[C@@H]3O)/C(C)=C/C(C)=C/C[C@@H]([C@@H](C)O)OC2=O)O[C@@H]1C,Lactobacillus reuteri,,HM-102,,,MIC,> 32 µg/mL
CC1(C)S[C@@H]2[C@H](NC(=O)[C@H](N)c3ccccc3)C(=O)N2[C@H]1C(=O)O,Acinetobacter pittii,,clinical isolate RKI-No_588/16,,,MIC,> 16 µg/mL
Nc1cc(C(F)(F)F)c(-c2nc(N3CCOCC3)nc(N3CCOCC3)n2)cn1,"Aurora kinase B (AURKB, Homo sapiens, UniProt Q96GD4)",enzyme activity,,10 µM,baseline: untreated,remaining activity,81%
Oc1ccc(-c2nc(-c3ccc(OC4CCCC4)cc3)no2)cc1,Veillonella sp.,,HM-49,,,MIC,> 128 µg/mL
c1ccc2c(c1)CCNC2c1c[nH]c2ccccc12 (stereo not shown),Escherichia coli,efflux pump inhibition,AG100 AcrAB-TolC expressing,50 µM,baseline: untreated cells,relative fluorescence index,0.2
C=C[C@]1(C)C[C@@H](OC(=O)CSC(C)(C)CNC(=O)[C@H](N)C(C)C)[C@]2(C)[C@H](C)CC[C@]3(CCC(=O)[C@H]32)[C@@H](C)[C@@H]1O,Mycoplasmoides gallisepticum,,,,,maximum antibacterial effect,2.69 log10 CFU/mL
COc1cc2c(c(OC)c1OC)-c1c(cc3c(c1OC)OCO3)[C@H](OC(=O)c1ccccc1)[C@@](C)(O)[C@@H](C)C2,HIV,viral replication,,,,EC50,0.006 µg/mL
C[C@H](Cn1cnc2c(N)ncnc21)OCP(=O)(O)O,hepatitis B virus,item: HBV DNA,human HBeAg-negative patients,"dose not given, week 24, after discontinuation",,virologic relapse,94%
COc1cc2c3c(c1OC)C1(C=CC(=O)C=C1)C[C@H]3N(C)CC2,hepatitis B virus,HBsAg secretion,HepG2.2.15,,,IC50,42 µM
Cc1cnc(N2CC3(CCOCC3)C2)c(C(=O)Nc2ccc(C(=O)N3CCc4cc(C(=O)Nc5c(C)cccc5F)sc4-c4ccccc43)cc2)c1,respiratory syncytial virus,"viral replication, plaque reduction","cotton rat, lung homogenate",,,ID50,0.0414 mg/kg
O=C(Nc1cc(F)c(F)c(F)c1)c1ccc(F)c(S(=O)(=O)N2CCC(O)CC2)c1,hepatitis B virus,viral replication,HepG2.2.15 cells,,,EC50,0.26 µM
O=C(O)[C@H]1O[C@@H](Oc2cc3oc(-c4ccccc4)cc(=O)c3c(O)c2O)[C@H](O)[C@@H](O)[C@@H]1O,Mycoplasmoides gallisepticum,,,,,maximum antibacterial effect,2.3 log10 CFU/mL
CCC1=C(C)/C(=C/NC2CCCCCC2)N=C1c1ccc[nH]1,Plasmodium yoelii,,Kenya MRA-428,"80 mg/kg, single dose, day 5",,parasitemia reduction,100%
COc1ccc(C[C@H](NC(=O)[C@H](C)NC(=O)CN2CCOCC2)C(=O)N[C@@H](Cc2ccccc2)C(=O)C2(C)CO2)cc1 (stereo in doubt),Babesia,parasite growth,,,,IC50,0.203 ± 0.007 µM
CCc1c(Cl)c(O)c(Cl)c(O)c1C(=O)O[C@H]1[C@H](O)[C@H](OC)[C@H](OC/C2=C\C=C\C[C@H](O)/C(C)=C/[C@H](CC)[C@@H](O[C@@H]3OC(C)(C)[C@@H](OC(=O)C(C)C)[C@H](O)[C@@H]3O)/C(C)=C/C(C)=C/C[C@@H]([C@@H](C)O)OC2=O)O[C@@H]1C,Enterococcus faecium,,106 vancomycin-resistant,,,MIC,> 16 µg/mL
COc1cccc(C(=O)NN(C(=O)c2cc(C)cc(C)c2)C(C)(C)C)c1C,Anopheles gambiae,,"G3, females","topical, concentration not given",,mating susceptibility,decreased
CNC(C)C1CCC(N)C(OC2C(N)CC(N)C(OC3OCC(C)(O)C(NC)C3O)C2O)O1 (stereo not shown),Enterobacter cloacae,,clinical isolate RKI-No_287/13,,,MIC,1 µg/mL
O=c1c(O)c(-c2ccc(O)c(O)c2)oc2cc(O)cc(O)c12,herpes simplex virus 2,viral replication,,,,EC50,35 µM
O=C(/C=C/c1ccc(O)c(O)c1)O[C@H]1[C@H](O)C[C@](O)(C(=O)O)C[C@H]1O,hepatitis B virus,rcDNA level,HepG2.2.15,,,IC50,13.7 µM

# A few entries again:
Compound,tested on,test,test system,conditions,how to read,quantity,result
COc1ccc(C[C@H](NC(=O)[C@H](C)NC(=O)CN2CCOCC2)C(=O)N[C@@H](Cc2ccccc2)C(=O)C2(C)CO2)cc1 (stereo in doubt),Babesia,parasite growth,,,,IC50,0.203 ± 0.007 µM
O=c1c(O)c(-c2ccc(O)c(O)c2)oc2cc(O)cc(O)c12,herpes simplex virus 2,viral replication,,,,EC50,35 µM
